Assay results gathered from unrelated publications.
Numbered parts are unrelated; each lists some results of a single study. Changes are numbered by the printed parent chain.

Block 1
Target: Interferon regulatory factor 5, full length, phosphomimetic (IRF5, Homo sapiens, UniProt Q13568-2, residues 1-514, S451D/S453D/S456D/S462D)
Technique: protein-binding microarray
Form: double-stranded DNA, one strand shown
Sample: in vitro
Tested at: 940 nM top
Setting: 60-bp whole probe
Added: salmon DNA 0.4 mg/ml
Baseline: random background probes
Reading: higher = stronger binding
Endpoint: fitted relative affinity
GCCTAGCACTCAAATACAAGTTTCTCACTGTGCTAGGTCTTGATTCGCTTGACGCTGCTG: 0.73 z-score
GCCTAGCACGACGGTTTCCTTATCCTGCCGTGCTAGGTCTTGATTCGCTTGACGCTGCTG: 1.3 z-score
GCCTAGCACTCAACTTTCTACGTCTGACTGTGCTAGGTCTTGATTCGCTTGACGCTGCTG: 0.819 z-score
GCCTAGCACTTAGGACTGCTTTTCCATTAGTGCTAGGTCTTGATTCGCTTGACGCTGCTG: -0.255 z-score

Block 2
Target: CCNB3, cyclin fold, Cln2 fusion (human)
Technique: yeast growth competition, sequencing
Sample: yeast
Setting: weak parent motif
Baseline: not given
Reading: higher = stronger binding
Endpoint: normalised enrichment score
Starting sequence: PKN2 docking peptide (human); VSAVQKLDFSDTM; partner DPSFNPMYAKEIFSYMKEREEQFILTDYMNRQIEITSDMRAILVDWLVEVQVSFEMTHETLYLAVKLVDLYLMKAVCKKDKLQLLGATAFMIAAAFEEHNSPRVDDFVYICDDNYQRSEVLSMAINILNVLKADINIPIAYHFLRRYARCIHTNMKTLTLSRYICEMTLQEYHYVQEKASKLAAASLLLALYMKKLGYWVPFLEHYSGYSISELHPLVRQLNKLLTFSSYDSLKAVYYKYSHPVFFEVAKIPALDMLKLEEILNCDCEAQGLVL
Q5A L7A: 0.112
F9N: 0.226
L7G: 0.0266
K6W: 0.805

Block 3
Target: Histone acetyltransferase KAT6A, winged helix 2, GST fusion (KAT6A, Homo sapiens, UniProt Q92794, residues 85-181)
Technique: protein binding microarray
Form: double-stranded DNA, one strand shown
Sample: in vitro
Tested at: not given
Setting: 8-mer, flanks averaged, mean of 2 arrays, mostly near background
Baseline: not given
Reading: higher = stronger binding
Endpoint: E-score
Target sequence (chain): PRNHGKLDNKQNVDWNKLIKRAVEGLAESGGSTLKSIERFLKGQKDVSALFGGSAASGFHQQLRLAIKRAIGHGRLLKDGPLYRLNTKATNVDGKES
GACGGATC: -0.00175
TATGGCGA: -0.0257
ACAGGCGA: 0.129
CGGTGTGA: 0.103

Mixed results
PhoQ, residues 284 288 289 292 302 303 SSYNSA
fold induction (PhoP, residues 12 14 15 18 19 IQSYL (Escherichia coli, UniProt P23836); Sort-seq, measured: YFP reporter; E. coli; PhoQ-PhoP variant library, added: 10 µM Mg2+; baseline: high Mg2+ state, higher = stronger signaling): 18.5

Some of these lines once more (block 1):
GCCTAGCACGACGGTTTCCTTATCCTGCCGTGCTAGGTCTTGATTCGCTTGACGCTGCTG: 1.3 z-score
